Assay results gathered from unrelated publications.
Compare with care: the assays were run in different laboratories. Numbers after ± are the reported error.
Sequence of UniProt O94956 (whole entry, looked up): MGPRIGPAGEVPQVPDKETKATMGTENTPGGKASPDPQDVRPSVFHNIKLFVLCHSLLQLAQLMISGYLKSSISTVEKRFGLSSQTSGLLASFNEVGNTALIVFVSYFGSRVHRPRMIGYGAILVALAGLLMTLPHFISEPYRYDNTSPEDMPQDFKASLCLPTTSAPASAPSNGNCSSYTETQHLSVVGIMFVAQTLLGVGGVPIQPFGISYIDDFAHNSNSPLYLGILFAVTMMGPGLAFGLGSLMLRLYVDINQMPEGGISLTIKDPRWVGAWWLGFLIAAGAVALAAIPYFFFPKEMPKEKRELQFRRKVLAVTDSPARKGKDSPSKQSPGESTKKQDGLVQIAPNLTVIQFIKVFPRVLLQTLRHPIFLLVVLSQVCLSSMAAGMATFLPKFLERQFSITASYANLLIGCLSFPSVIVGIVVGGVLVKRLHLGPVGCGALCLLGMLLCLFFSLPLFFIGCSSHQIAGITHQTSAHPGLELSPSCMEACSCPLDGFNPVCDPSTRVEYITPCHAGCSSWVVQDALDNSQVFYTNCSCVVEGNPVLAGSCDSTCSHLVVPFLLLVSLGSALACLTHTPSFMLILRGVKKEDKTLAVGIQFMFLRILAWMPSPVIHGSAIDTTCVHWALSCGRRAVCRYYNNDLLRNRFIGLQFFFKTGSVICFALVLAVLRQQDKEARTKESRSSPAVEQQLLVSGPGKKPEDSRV

| SMILES | tested on | assay | test system | setting | scale | quantity | value |
| --- | --- | --- | --- | --- | --- | --- | --- |
| CC[C@H](C)C(=O)N1CCC(NC(=O)Nc2ccc(OC(F)(F)F)c(F)c2)CC1 | – | – | healthy volunteers | oral, 2 mg single dose | – | subjects with feeling hot TEAE | 0% |
| COc1ccc(CNc2nc(N3CCC[C@H]3CO)ncc2C(=O)NN)cc1Cl | Salmonella typhimurium | – | TA97a | 62.5 µg/plate, 48 h, added: rat liver S9 | – | revertant count | 194 ± 16 |
| CC(CCC(=O)NCC(=O)O)C1CCC2C3C(O)CC4CC(OC5OC(C(=O)O)C(O)C(O)C5O)CCC4(C)C3CCC12C (stereo not drawn) | Solute carrier organic anion transporter family member 2B1 (SLCO2B1, Homo sapiens, UniProt O94956) | transporter uptake, inhibitor | – | – | – | IC50 | > 100 µM |
| O=C(O)CCC(NP(=O)(O)OCCC[C@@H](NC(=O)CCC(NC(=O)CCCCCNC(=O)CCCCCNC(=O)c1ccc([18F])cc1)C(=O)O)C(=O)O)C(=O)O (stereo partly drawn) | PC-3 tumour model | – | host not given, lung | intravenous, 2 h, tumour-bearing | – | tracer uptake | 0.09 %ID/g |
| CN[C@](C)(C[18F])C(=O)O | MDA-MB-468 tumour model | – | host not given, tumour | 1 h, tumour-bearing | – | tracer uptake | 2 %ID/g |
| N=C(N)c1ccc(-c2ccc(-c3ccco3)o2)nc1 | Salmonella typhimurium | mutagenicity, Ames test | TA1535 | 10 or 20 µM, 48 h, pH 7.4, higher tested concentration, added: rat liver S9 mix | – | revertant colonies | 16.7 ± 1.9 colonies/plate |
| O=C(O)CCC(NP(=O)(O)OCCC[C@@H](NC(=O)CCC(NC(=O)c1ccc([18F])cc1)C(=O)O)C(=O)O)C(=O)O (stereo partly drawn) | PC-3 tumour model | – | host not given, blood | intravenous, 2 h, tumour-bearing | – | tracer uptake | 0.08 %ID/g |
| N[C@]1(c2ccccc2Cl)CCC[C@H](O)C1=O | – | – | Wistar rat | intravenous, 20 mg/kg | – | apparent volume of distribution | 7.35 ± 0.736 L/kg |
| CCC(=O)N(C)c1ccc(Cl)c(Cl)c1 | Salmonella typhimurium | Ames test | TA98 | 5.00 mg/plate, with rat liver S9 | – | revertants | 0 revertants/plate |
| O=C(O)CCC(NP(=O)(O)OCCC[C@@H](NC(=O)CCC(NC(=O)CCCCCNC(=O)c1ccc([18F])cc1)C(=O)O)C(=O)O)C(=O)O (stereo partly drawn) | PC-3 tumour model | – | host not given, spleen | intravenous, 2 h, tumour-bearing | – | tracer uptake | 1.38 %ID/g |
| CC[C@H](C)[C@H](NC(=O)[C@H](CC(=O)O)NC(=O)[C@@H](NC(=O)[C@@H]1CCCN1C(=O)[C@@H](N)CCCNC(=N)N)[C@@H](C)O)C(=O)N[C@@H](CCCCN)C(=O)N[C@H]1CSSC[C@@H]2NC(=O)[C@H](CCCNC(=N)N)NC(=O)CNC(=O)[C@H](CC(N)=O)NC(=O)[C@H]([C@@H](C)O)NC(=O)[C@H](CCCCN)NC(=O)CNC(=O)[C@H](Cc3ccccc3)NC(=O)[C@H](CCCNC(=N)N)NC(=O)[C@H](CO)NC(=O)[C@H](CCCCN)NC(=O)[C@@H]3CSSC[C@@H](C(=O)N[C@@H](Cc4ccccc4)C(=O)O)NC(=O)[C@H](CC(=O)O)NC(=O)[C@H](CSSC[C@H](NC(=O)[C@H](CCC(N)=O)NC(=O)[C@H](Cc4ccc(O)cc4)NC(=O)[C@H](CO)NC(=O)[C@H](CCC(=O)O)NC(=O)[C@H](CO)NC1=O)C(=O)N[C@@H](Cc1ccccc1)C(=O)N1CCC[C@H]1C(=O)N[C@@H](C(C)C)C(=O)N3)NC(=O)[C@H](Cc1ccccc1)NC(=O)CNC(=O)[C@H](CC(N)=O)NC(=O)[C@H](C(C)C)NC2=O | Voltage-gated inwardly rectifying potassium channel KCNH2 (KCNH2, Homo sapiens, UniProt Q12809, S631C) | ion current, inhibitor, two-electrode voltage clamp | – | pH 7.4, oocytes | – | IC50 | 0.041 µM |
| CCN(CC)Cc1cc(Nc2c(C3CCCC3)c(C)nc3cc(Cl)ccc23)ccc1O | BHK-21 DENV2 replicon cells | – | – | 24 h | – | CC50 | 16.9 ± 2.06 µM |
| C[C@@](O)(C(F)F)[C@H](NC(=O)c1ccc(C#CC#CC2CC2)cc1)C(=O)NO | – | – | dog, plasma | intravenous, 100 mg/kg | – | clearance | 12 mL/min/kg |
| COc1ccc(CNc2nc(N3CCC[C@H]3CO)ncc2C(=O)NNC(=O)c2cnc(N3CCC[C@H]3CO)nc2NCc2ccc(OC)c(Cl)c2)cc1Cl | Salmonella typhimurium | – | TA97a | 62.5 µg/plate, 48 h, added: rat liver S9 | – | revertant count | 177 ± 9 |
| O=C(O)CC1C2CCCN3CCCC(CN1CCCc1ccc(Cl)c(Cl)c1)C23 (stereo not drawn) | HEK293T | – | – | – | – | CC50 | 83.3 µM |
| Nc1nc2c([C@@H]3O[C@@H]4COP(=O)(O)O[C@H]5[C@@H](O)[C@H](c6snc7c(=O)[nH]c(N)nc67)O[C@@H]5COP(=O)(O)O[C@H]4[C@H]3O)snc2c(=O)[nH]1 | – | – | – | – | reference: parent monomeric nucleoside | relative emission quantum yield | 16% |
| O=C(O)CCCC1C2CCCN3CCCC(CN1C(=O)c1ccc(Cl)cc1)C23 (stereo not drawn) | HEK293T | – | – | – | – | CC50 | 200 µM |
| Cn1c(SCc2cccc(C#N)c2)nc2cc3ccccc3cc2c1=O | BGM | morphology and trypan blue | – | 72 h | – | maximum non-toxic concentration | 65 µg/mL |
| COc1ccc(-n2cc(C(=O)N3C[C@]4(OC(=O)c5ccccc5NC(C)=O)CC[C@H](OC)[C@@]56[C@@H]4C[C@@H]([C@@H]35)[C@@]3(O)C[C@H](OC)[C@H]4C[C@@H]6[C@]3(O)[C@H]4OC)nn2)cc1 | – | – | Sprague-Dawley rat, plasma | intravenous, 2 mg/kg | – | AUC(0-t) | 37.8 ng·h/mL |
| CCOC(=O)CC[C@@H](NC(=O)c1ccc(N(C)Cc2ccc3[nH]c(C)nc(=O)c3c2)s1)C(=O)OCC | Mycobacterium tuberculosis | – | H37Rv | 10 µM, 24 h | – | metabolized share of uptake | ~93.6% |
| CN(C)CC1CCCCC1(O)c1cccc(O)c1 (stereo not drawn) | – | – | Caco-2 | 10 µM, 3 h, pH 7.4 | – | Papp B→A | 14.2 ×10⁻⁶ cm/s |
| CCCCCc1cc(O)c2c(c1)OC(C)(C)C1CCC(C)=CC21 (single isomer, unassigned; (-)) | – | – | HEK293 microsome incubation mixture | – | – | unbound fraction | 0.042 ± 0.003 |
| COc1cc(C(=O)NCCOCCOCCOCCNC(=O)c2ccc([18F])nc2)ccc1NC(=O)C1NC(CC(C)(C)C)C(C#N)(c2ccc(Cl)cc2F)C1c1cccc(Cl)c1F (stereo not drawn) | HepG2 tumour model | – | host not given, brain | 4 h, tumour-bearing | – | tracer uptake | 0.16 %ID/g |
| CC[C@H](C)[C@H](NC(=O)[C@H](CCCCN)NC(=O)[C@H](CCCCN)NC(=O)[C@H](C)NC(=O)[C@@H](NC(=O)[C@H](C)NC(=O)[C@H](CC(C)C)NC(=O)[C@H](CC(C)C)NC(=O)[C@H](C)NC(=O)[C@H](CCCCN)NC(=O)[C@H](CC(C)C)NC(=O)[C@H](CC(N)=O)NC(=O)[C@@H](N)CC(C)C)C(C)C)C(=O)N[C@@H](CC(C)C)C(N)=O | – | circular dichroism | 10 mM ammonium acetate | 100 µM, 20 °C | – | α-helix content | 7% |

Repeated from above:
| SMILES | tested on | assay | test system | setting | scale | quantity | value |
| --- | --- | --- | --- | --- | --- | --- | --- |
| N[C@]1(c2ccccc2Cl)CCC[C@H](O)C1=O | – | – | Wistar rat | intravenous, 20 mg/kg | – | apparent volume of distribution | 7.35 ± 0.736 L/kg |
| CCN(CC)Cc1cc(Nc2c(C3CCCC3)c(C)nc3cc(Cl)ccc23)ccc1O | BHK-21 DENV2 replicon cells | – | – | 24 h | – | CC50 | 16.9 ± 2.06 µM |
| O=C(O)CC1C2CCCN3CCCC(CN1CCCc1ccc(Cl)c(Cl)c1)C23 (stereo not drawn) | HEK293T | – | – | – | – | CC50 | 83.3 µM |
